{"data": "Published values gathered from unrelated publications", "note": "Protocols differ between the studies behind these lines. “And” joins repeats or separate records; there may be more than shown. ± gives the spread as reported.", "sequence of UniProt O60674 (whole entry, looked up)": "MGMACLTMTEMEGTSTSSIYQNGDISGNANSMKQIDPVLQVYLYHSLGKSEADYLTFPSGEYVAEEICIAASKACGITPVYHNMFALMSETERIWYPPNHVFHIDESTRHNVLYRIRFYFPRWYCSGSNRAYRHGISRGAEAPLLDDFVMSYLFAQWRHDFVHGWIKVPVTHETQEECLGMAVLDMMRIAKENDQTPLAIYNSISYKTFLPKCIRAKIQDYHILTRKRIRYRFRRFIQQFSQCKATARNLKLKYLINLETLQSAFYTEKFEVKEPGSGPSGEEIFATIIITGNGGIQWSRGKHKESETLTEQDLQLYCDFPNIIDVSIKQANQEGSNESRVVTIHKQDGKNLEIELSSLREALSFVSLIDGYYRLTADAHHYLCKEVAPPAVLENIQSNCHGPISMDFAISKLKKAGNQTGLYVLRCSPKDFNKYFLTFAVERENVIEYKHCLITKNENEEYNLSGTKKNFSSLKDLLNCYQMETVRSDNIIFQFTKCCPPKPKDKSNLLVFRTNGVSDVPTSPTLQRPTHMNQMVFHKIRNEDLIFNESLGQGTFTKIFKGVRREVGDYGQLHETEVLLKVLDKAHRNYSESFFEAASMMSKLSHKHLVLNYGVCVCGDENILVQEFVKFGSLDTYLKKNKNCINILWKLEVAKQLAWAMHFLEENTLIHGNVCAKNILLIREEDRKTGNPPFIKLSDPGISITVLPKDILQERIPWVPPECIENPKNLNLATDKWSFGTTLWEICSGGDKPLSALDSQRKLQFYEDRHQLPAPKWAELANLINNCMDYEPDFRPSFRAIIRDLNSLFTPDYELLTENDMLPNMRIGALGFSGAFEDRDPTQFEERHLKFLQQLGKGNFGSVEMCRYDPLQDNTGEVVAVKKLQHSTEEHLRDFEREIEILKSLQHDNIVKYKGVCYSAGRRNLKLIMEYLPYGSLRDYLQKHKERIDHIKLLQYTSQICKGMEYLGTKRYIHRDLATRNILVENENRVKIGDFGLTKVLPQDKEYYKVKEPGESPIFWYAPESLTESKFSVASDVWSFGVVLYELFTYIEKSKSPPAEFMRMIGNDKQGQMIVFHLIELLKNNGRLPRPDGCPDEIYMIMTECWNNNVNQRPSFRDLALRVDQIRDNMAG", "sequence of UniProt P54646 (whole entry, looked up)": "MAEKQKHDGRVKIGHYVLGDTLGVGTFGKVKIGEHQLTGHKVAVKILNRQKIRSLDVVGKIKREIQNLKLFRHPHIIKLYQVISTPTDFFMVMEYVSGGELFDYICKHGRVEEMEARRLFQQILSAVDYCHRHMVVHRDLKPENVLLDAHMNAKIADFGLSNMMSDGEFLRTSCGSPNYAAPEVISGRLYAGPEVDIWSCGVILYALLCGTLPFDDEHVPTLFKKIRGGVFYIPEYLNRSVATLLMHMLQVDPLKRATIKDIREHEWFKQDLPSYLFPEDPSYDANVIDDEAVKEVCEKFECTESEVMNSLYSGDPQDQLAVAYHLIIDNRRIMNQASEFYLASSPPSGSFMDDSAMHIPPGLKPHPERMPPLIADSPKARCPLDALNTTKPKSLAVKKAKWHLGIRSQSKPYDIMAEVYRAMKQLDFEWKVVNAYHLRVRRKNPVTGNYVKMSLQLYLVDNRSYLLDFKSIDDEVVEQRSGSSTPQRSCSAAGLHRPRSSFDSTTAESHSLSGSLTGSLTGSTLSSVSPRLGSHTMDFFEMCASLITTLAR", "sequence of UniProt Q8IXJ6 (whole entry, looked up)": "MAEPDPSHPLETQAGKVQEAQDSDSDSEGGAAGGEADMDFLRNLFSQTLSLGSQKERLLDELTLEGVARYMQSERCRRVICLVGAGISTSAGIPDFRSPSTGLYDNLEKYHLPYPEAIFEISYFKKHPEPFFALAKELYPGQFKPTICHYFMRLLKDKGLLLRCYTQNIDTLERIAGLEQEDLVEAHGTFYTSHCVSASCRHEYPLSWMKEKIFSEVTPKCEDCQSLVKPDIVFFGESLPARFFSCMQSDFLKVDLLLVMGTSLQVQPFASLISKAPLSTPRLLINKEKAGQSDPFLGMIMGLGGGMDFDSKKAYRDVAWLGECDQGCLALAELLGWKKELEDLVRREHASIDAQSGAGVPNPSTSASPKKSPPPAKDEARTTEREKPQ", "sequence of UniProt P04150 (whole entry, looked up)": "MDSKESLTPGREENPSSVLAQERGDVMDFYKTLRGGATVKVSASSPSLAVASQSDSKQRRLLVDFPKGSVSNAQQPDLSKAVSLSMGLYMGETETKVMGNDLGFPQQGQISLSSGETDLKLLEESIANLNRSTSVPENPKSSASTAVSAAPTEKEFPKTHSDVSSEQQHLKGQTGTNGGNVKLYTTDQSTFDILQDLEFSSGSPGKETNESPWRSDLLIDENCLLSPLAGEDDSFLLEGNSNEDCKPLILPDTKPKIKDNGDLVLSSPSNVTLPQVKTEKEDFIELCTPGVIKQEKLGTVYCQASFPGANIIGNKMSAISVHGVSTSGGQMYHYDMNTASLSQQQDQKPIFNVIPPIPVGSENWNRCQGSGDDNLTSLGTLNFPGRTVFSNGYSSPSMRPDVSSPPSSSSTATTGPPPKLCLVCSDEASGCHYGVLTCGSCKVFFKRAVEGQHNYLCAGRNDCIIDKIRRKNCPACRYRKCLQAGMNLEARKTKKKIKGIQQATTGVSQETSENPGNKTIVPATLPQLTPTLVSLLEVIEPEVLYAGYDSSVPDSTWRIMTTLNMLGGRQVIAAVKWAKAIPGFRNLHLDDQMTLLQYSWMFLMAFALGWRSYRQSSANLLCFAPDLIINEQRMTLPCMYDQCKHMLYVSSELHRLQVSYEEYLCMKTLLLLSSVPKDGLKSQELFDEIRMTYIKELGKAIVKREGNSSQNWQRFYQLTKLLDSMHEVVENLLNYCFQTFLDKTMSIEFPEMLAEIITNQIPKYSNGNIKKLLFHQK", "sequence of UniProt P34981 (whole entry, looked up)": "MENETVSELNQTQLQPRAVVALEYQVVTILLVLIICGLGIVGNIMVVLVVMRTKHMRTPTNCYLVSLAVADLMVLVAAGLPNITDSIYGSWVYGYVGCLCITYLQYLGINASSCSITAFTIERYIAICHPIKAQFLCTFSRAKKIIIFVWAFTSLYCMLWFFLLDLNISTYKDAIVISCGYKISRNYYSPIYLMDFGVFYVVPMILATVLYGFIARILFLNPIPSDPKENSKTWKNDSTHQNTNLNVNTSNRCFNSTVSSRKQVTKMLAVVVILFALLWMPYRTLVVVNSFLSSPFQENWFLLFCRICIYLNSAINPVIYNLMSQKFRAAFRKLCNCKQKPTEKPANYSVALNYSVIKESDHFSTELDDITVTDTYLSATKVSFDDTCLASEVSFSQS", "sequence of UniProt P07949 (whole entry, unmodified, looked up)": "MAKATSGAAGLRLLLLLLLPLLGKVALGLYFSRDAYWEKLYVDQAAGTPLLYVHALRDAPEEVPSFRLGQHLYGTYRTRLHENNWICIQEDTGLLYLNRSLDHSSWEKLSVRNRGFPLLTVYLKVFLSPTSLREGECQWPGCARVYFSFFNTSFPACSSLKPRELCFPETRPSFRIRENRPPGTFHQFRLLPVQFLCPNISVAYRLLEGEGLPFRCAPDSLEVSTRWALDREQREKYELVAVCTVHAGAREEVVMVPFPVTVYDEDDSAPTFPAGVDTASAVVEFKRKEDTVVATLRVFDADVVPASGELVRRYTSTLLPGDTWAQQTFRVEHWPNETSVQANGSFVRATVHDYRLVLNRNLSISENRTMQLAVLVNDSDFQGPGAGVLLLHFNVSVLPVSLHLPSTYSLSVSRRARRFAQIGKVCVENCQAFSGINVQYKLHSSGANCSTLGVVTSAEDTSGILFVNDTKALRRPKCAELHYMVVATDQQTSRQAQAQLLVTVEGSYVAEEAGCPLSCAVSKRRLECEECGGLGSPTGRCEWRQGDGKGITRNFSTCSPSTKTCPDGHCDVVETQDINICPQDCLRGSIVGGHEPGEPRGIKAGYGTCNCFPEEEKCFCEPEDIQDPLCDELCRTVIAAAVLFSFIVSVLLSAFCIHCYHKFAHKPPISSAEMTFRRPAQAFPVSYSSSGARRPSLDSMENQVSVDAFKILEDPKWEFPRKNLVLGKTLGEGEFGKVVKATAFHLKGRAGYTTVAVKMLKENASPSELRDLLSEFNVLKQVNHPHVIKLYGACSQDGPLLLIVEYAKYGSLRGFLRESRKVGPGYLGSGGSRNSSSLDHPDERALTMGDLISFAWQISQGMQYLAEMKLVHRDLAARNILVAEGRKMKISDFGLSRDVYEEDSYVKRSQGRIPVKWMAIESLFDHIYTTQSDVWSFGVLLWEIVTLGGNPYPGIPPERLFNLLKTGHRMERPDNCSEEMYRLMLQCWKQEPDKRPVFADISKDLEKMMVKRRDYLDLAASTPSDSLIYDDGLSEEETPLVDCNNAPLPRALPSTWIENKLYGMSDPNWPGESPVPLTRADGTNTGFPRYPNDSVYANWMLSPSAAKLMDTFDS", "sequence of UniProt P46098 (whole entry, looked up)": "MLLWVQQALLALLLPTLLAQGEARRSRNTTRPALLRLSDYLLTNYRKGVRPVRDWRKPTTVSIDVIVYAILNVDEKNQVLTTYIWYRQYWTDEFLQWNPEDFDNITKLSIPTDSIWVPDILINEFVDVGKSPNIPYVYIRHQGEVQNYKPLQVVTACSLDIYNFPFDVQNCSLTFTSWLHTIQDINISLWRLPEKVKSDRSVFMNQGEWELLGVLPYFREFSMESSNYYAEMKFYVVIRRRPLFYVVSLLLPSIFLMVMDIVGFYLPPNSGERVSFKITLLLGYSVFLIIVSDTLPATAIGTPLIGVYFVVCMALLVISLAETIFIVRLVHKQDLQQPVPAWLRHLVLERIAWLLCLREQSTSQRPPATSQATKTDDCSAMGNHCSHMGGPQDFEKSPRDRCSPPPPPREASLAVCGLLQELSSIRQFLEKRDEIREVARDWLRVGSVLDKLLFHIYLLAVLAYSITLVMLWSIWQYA"}
{"Compound": "Cc1ccc(N(O)/N=N/c2ccc(S(=O)(=O)Nc3nccs3)cc2)cc1", "target or system": "α-glucosidase, rat intestine", "assay": "enzyme activity", "conditions": "240 µg/mL, added: 4-nitrophenyl α-D-glucopyranoside", "measurement": "inhibition", "result": "40 ± 0.04%"}
{"Compound": "CC(=O)C12NC(C)(C)CC1(C)C(=O)C1=C2c2c(c3c4n2C(C)(C)CC2=C4C4(CC(C)(C)NC(C)(C4)C2=O)CC3(C)C)C(=O)C(C)(C)N1 (single isomer, unassigned; (-))", "target or system": "Potassium/sodium hyperpolarization-activated cyclic nucleotide-gated channel 1 (Homo sapiens, UniProt O60741)", "assay": "ion current, antagonist, whole-cell patch clamp", "test system": "HEK293T", "conditions": "10 µM", "measurement": "inhibition", "result": "-0.12 ± 0.04%"}
{"Compound": "CN1CCN(Cc2ccc(-c3ccc(CO[C@H]4CCC[C@@H]4NC(=O)c4cc(-c5cnn(C)c5)cnc4N)cc3)cc2)CC1", "target or system": "Proto-oncogene tyrosine-protein kinase receptor Ret (RET, Homo sapiens, UniProt P07949, V804L)", "assay": "enzyme activity, inhibitor", "conditions": "0.1 µM", "measurement": "inhibition", "result": "7%"}
{"Compound": "COC1CN([C@H]2CC[C@H]([C@@]3(C)Oc4c(Cl)cc(C(=O)NCc5c(SC)cc(C)[nH]c5=O)c(C)c4O3)CC2)C1", "assay": "RNA-seq, item: MAPRE3", "test system": "human, whole blood", "conditions": "dose not given, 24 h", "scale": "relative to: pretreatment baseline", "measurement": "log2 fold change", "result": 1.7}
{"Compound": "CCCCCCCCCCCCNC(=S)NCCCC[C@H](NC(=O)OCc1ccccc1)C(=O)N1CCC[C@H]1C(=O)N[C@@H](CCCNC(=N)N)C(N)=O", "target or system": "NAD-dependent protein deacetylase sirtuin-2 (SIRT2, Homo sapiens, UniProt Q8IXJ6)", "assay": "enzyme activity, inhibitor", "conditions": "1 µM", "measurement": "inhibition", "result": "53%"}
{"Compound": "CCn1cc(C(=O)O)c(=O)c2c(N)c(F)c(NC3CCCCC3)cc21", "target or system": "5'-AMP-activated protein kinase catalytic subunit alpha-2, with beta2 gamma3 (PRKAA2, Homo sapiens, UniProt P54646)", "assay": "kinase activity", "conditions": "0.1 µM, added: ATP at Km", "measurement": "inhibition", "result": "9%"}
{"Compound": "O=C1c2sc(-c3ccc(N4CCC(F)C4)nc3F)nc2CCN1c1cccnc1 (centres unmarked)", "target or system": "Glucocorticoid receptor (NR3C1, Homo sapiens, UniProt P04150)", "assay": "ligand displacement, radioligand", "conditions": "1 µM", "measurement": "inhibition", "result": "-4%"}
{"Compound": "Cc1cnc2nc1Nc1cccc(c1)COCc1cc(ccc1OCCN1CCOCC1)N2", "target or system": "Tyrosine-protein kinase JAK2 (JAK2, Homo sapiens, UniProt O60674)", "assay": "inhibitor, Z'-LYTE kinase", "conditions": "37.04 nM", "measurement": "inhibition", "result": "48.5% and 47.4% and 49.8%"}
{"Compound": "C[Si](C)(C)C[C@@H](CN)CC(=O)O", "target or system": "Thyrotropin-releasing hormone receptor (TRHR, Homo sapiens, UniProt P34981)", "assay": "ligand displacement, radioligand", "conditions": "75 µM", "measurement": "inhibition", "result": "17%"}
{"Compound": "O=C1c2sc(-c3ccc(N4CCC(CO)CC4)nc3F)nc2CCN1c1cccnc1", "target or system": "Voltage-dependent N-type calcium channel subunit alpha-1B (Cacna1b, Rattus norvegicus, UniProt Q02294)", "assay": "ligand displacement, radioligand", "conditions": "1 µM", "measurement": "inhibition", "result": "-2%"}
{"Compound": "Brc1ccccc1-c1nnc(CSc2nnnn2-c2ccccc2)o1", "target or system": "5-hydroxytryptamine receptor 3A (HTR3A, Homo sapiens, UniProt P46098)", "assay": "ligand displacement, radioligand", "conditions": "10 µM", "measurement": "inhibition", "result": "-2%"}
{"note": "Some of these lines once more:"}
{"Compound": "O=C1c2sc(-c3ccc(N4CCC(F)C4)nc3F)nc2CCN1c1cccnc1 (centres unmarked)", "target or system": "Glucocorticoid receptor (NR3C1, Homo sapiens, UniProt P04150)", "assay": "ligand displacement, radioligand", "conditions": "1 µM", "measurement": "inhibition", "result": "-4%"}
